Values quoted from earlier work, collected from citations in different studies.
Compare with care: the assays were run in different laboratories. ± marks the error that the study gave.
Sequence of UniProt Q9Y5N1 (whole entry, looked up): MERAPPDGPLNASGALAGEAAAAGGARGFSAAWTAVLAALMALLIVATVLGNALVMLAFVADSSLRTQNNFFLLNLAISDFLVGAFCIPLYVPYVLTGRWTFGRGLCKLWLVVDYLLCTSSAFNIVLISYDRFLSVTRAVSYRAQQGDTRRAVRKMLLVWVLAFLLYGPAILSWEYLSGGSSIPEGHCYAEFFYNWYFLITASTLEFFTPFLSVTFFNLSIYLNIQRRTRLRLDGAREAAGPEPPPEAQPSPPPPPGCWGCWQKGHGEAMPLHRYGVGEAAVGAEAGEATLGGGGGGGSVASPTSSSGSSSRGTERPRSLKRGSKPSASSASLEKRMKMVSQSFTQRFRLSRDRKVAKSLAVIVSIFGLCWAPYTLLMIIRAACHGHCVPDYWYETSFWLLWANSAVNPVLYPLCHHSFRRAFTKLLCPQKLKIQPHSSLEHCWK
Sequence of UniProt P30542 (whole entry, looked up): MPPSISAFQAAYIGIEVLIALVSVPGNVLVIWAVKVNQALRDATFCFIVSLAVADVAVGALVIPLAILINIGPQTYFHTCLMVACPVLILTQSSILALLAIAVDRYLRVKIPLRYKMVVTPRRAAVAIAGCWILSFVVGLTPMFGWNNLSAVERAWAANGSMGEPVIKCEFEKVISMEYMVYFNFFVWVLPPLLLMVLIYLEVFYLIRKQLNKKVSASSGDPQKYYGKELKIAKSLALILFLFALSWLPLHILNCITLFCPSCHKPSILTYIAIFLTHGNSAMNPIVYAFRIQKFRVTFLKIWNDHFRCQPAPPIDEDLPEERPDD
Sequence of UniProt P33535 (whole entry, looked up): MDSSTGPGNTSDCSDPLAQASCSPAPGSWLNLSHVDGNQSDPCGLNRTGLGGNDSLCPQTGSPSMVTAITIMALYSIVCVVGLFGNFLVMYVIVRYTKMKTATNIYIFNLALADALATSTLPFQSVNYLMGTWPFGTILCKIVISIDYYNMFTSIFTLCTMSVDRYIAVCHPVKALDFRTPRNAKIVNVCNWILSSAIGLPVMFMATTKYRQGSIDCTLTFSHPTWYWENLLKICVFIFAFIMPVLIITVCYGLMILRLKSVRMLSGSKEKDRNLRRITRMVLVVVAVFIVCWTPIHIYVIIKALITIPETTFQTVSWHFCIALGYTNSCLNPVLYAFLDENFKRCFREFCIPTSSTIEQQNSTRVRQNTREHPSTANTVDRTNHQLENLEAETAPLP

Molecule	tested on	test	system	setting	scale	quantity	result
(R)-α-methylhistamine	Histamine H3 receptor (HRH3, Homo sapiens, UniProt Q9Y5N1)	–	–	–	–	Hill coefficient	1.1
buprenorphine	–	–	human	dose not given, with: efavirenz	baseline: compound alone	AUC(0-24h) decrease	49%
buprenorphine	–	–	human	oral, dose not given, with: delavirdine co-administration	–	AUC(0-24h) increase	325%
cocaine hydrochloride	–	–	mouse (CD-1, male), brain	intraperitoneal, 20 mg/kg, 15 min	–	brain concentration	3.45 ng/mg
H-Bcp-Tic-OH	Mu-type opioid receptor (Oprm1, Rattus norvegicus, UniProt P33535)	binding	rat brain membranes	with: [3H]DAMGO	–	Ki	2.27 ± 0.21 µM
R(-)-PIA	Adenosine receptor A1 (ADORA1, Homo sapiens, UniProt P30542)	–	–	–	–	Hill coefficient	0.9
maraviroc	–	–	human	–	baseline: vaginal tissue over blood plasma	AUC(0-24h) ratio	1.9

Excerpt of the above:
Molecule	tested on	test	system	setting	scale	quantity	result
buprenorphine	–	–	human	oral, dose not given, with: delavirdine co-administration	–	AUC(0-24h) increase	325%
